Experimental data collected from several papers.
Parts stem from different laboratories: compare values within a part only. Changes are numbered by the printed parent chain.

Sample 1
Target: RNA binding protein fox-1 homolog 2, RRM domain, GST-SBP tag (RBFOX2, Homo sapiens, UniProt O43251-10, residues 100-194)
Method: RNA Bind-n-Seq
Molecule type: RNA
Sample: in vitro
Concentration: 365 nM
Notes: natural RNA segment, single round, ends assumed
Reference: no-protein control
Direction: higher = stronger binding
Endpoint: RBNS enrichment (R)
Shared flanks, not repeated: GGGAGUUCUACAGUCCGACGAUC … UGGAAUUCUCGGGUGCCAA
Target sequence (chain): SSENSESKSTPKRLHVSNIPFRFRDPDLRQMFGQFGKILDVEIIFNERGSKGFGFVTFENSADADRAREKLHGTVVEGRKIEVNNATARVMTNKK
UCAGAUAUGUCCAGAGCAAAUUAGUCAUCCCCCGGUUGUGUUCAUAUUAACCACAAUCAUCUCUAGAGGAAAGAGUAUUACAACCCAGGCAUGAUCCUCUAUGGACACUA: 1.94
UCUCUACUCACUGCAACCUCCACCUCCCGGGUUCAAGCAAUUCUCCUGCCUCAGCCUCCUGAGUAGCUGGGAUGACAGGUGCACGCCACCACGCCCGGCUAAUUUUUAUA: 0.576
CUAUAAAAGAAAUGCUUGAGAGGUUGACUAUAAUGGAUAUGUCACAGGUAUAAAACAGUUGUUUUCUAAAAACAUGCAUUUAGUAUGGCAUUCUCUUUUAGCAACUGAAU: 0.701
GAGCUUUCUCUCGUGCAGUUUCAUCAGAGGUUUGGGAGGAGGGCAAGUGGCCGCUAGAGAAGAAUACAAUUUAGCAGCAACUGCCGGCUCUUUGGGCAGAGGUUUGAUUU: 0.539
UCUAUUACUCUUACACUUUAGUUUUACCAUUUGAGUAGCCACUUAUUCACCAGAGUUGGAAUUGAGAAAUUUUGGGCUUUCCAAAAUUAACCUUUAAACUUAAAAUUGAU: 0.455
CCCUUCGAAGGGAAGCCCAAACACUUUGCACGCUGUGCUGCAGACAUUCUGGCCUGGUGUGUCUGAAAGUUGCAUCAGUCCUCACGGUGCAAACACAGUUGAUUUAGGAA: 0.255
CCUGAAUUGGAGAGCUUGACCUUUUGCUUGUUAUUUUGCAGUUUGAUUUUGGGCCUAAAGAUGCCAGUGCUUUUCAGCUGUGGUGUGCAUGUCAUUAACUACCCCUCUCU: 9.8
CGUUGUUUGACUAUUUUAUAAUUUUGUUAUUAAAACAUCCAGGGUGAUUUCAUCUUUGUUCCUAGAUGUACUCAUUUGAAUAGGUUUUGCGUUCAUUACUCAGCAGUGUA: 0.764
CCCUGACAAACAACAGGUGGCAUCUGGUGUGCUGUUCUUGAGUUUUCGUUUAGGAUUAGUUGAGUUCCAGCUGGGUUUUGGGAGAAAGGAGAUGCUACCAAGUCUUGGAU: 0.767
CGUGCCCUGGAGAGGUCUUGGGUGAAAACUUGACCUUGAAGAAACCAAUCACAAAAGCGGCGUUGGGUCAGGGCUAGGCUUAGAGGUGAAGCAUCAACAUGGAACCAUCU: 0.301
UUCUUGCAUUUUGCUCUCCAUUCAGCAUGUGUGUGGGUGUGGAUGUUUAUAAACAAGACUAAGUCUGACUUCAUAAGGGCUUUCUAAAACCAUUUCUGUCCAAGAGAAAA: 24.2
UAGCCAAGUUGUGUACCUCAGUCUUUAGUUUCCAAGCGGCUCUCUUGCUCAAUACAAUGUGCAUUUCAAAAUAACACUGUAGAGUUGACAGAACUGGUUCAUGUGUUAUG: 0.304

Sample 2
Target: CCNB1, cyclin fold, Cln2 fusion (human)
Method: yeast growth competition, sequencing
Sample: yeast
Notes: weak parent motif
Reference: not given
Direction: higher = stronger binding
Endpoint: normalised enrichment score
Parent: FZR1 docking peptide (human); QDYERRLLRQIVI
E4A: 0.256
V12A: -0.181
L7A: 0.877
Q10A: 0.0717
R5K: 0.634
R5A L7A: 0.233
R9A: -0.839
R6A: 0.764
L8F: 0.176
L8A: 0.278

Sample 3
Target: TEF, bZIP domain (human)
Method: DHFR protein complementation
Sample: yeast
Notes: single substitutions, most at no-binding floor
Reference: wild-type JUN-FOS pair
Direction: higher = stronger binding
Endpoint: binding fitness
Parent: JUN, bZIP domain (human); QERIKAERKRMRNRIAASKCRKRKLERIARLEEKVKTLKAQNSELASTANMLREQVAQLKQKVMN; partner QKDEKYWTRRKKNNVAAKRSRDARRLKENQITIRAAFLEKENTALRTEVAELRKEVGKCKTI
E44A: -1.37 natural log
K39Y: -1.2 natural log
L45M: -1.26 natural log
L52F: -1.4 natural log
L38D: -1.52 natural log
Q55A: -1.19 natural log
E33P: -1.47 natural log
S43C: -1.25 natural log
T48W: -1.49 natural log
T48S: -1.51 natural log
T37G: -1.38 natural log
E32S: -1.45 natural log
E44L: -1.44 natural log
K39G: -1.4 natural log
L45Q: -1.5 natural log
I28A: -1.41 natural log
A49D: -1.46 natural log
A29P: -1.46 natural log
L45G: -1.51 natural log
E54V: -1.11 natural log
K39S: -1.48 natural log
V35F: -1.21 natural log
V35A: -1.32 natural log
L31T: -1.53 natural log

Sample 4
Target: Sal-like protein 4, full length isoform A (SALL4, Homo sapiens, UniProt Q9UJQ4, residues 1-1053)
UniProt Q9UJQ4, sequence (whole entry, looked up): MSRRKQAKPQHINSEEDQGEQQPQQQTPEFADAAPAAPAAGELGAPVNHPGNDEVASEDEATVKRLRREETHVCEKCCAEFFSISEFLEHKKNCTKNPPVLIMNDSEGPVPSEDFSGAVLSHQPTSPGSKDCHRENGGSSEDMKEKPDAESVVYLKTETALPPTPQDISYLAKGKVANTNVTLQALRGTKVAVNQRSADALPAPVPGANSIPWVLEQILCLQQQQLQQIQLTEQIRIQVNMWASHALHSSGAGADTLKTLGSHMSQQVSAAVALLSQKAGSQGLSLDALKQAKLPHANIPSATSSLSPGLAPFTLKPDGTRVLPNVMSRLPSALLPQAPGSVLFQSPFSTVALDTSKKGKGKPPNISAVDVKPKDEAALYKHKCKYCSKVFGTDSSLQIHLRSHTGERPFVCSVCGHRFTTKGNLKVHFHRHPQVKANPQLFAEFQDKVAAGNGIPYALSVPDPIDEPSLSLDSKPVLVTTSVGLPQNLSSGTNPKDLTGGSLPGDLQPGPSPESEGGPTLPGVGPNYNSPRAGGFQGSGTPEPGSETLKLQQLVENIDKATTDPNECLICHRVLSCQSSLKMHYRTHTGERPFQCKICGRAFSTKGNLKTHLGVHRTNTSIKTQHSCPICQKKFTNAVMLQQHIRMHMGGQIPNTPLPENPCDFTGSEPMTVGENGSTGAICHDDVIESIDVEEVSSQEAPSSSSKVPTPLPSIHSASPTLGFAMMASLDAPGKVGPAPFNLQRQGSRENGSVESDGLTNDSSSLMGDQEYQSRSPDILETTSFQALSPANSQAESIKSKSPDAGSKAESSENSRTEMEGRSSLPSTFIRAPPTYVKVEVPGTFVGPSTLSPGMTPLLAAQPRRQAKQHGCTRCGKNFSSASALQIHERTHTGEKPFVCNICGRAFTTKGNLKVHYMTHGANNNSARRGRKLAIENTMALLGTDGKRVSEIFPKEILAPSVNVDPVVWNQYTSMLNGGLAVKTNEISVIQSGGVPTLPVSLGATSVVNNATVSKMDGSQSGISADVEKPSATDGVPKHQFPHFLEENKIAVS
Method: universal PBM
Molecule type: double-stranded DNA, one strand shown
Sample: in vitro
Concentration: 600 nM
Notes: 8-mer, flanks averaged, mean of replicates
Direction: higher = stronger binding
Endpoint: E-score
ACGGTGCG: -0.281
ACACTGTA: 0.0825
ACGTAAAG: 0.242
ATTAATGA: 0.375
AGTTCTTG: 0.115
ATAGCTCA: 0.101
ACAACGAG: 0.107
ATGTTTAC: 0.172
CGCATAAA: 0.236
ACTATTCT: 0.104
CATAACCC: 0.105
AATCTAAT: 0.223
ATCGTCCA: -0.0622
ACCTCTAG: 0.0413
CATGTGCA: -0.00739
CCCTGACA: -0.0013
CCTGGCTC: -0.229
CCATGCAG: -0.286
CGGCAATC: -0.283
CCCGGCGC: -0.369
GTTAGTTA: 0.259
AGGTCCGC: -0.397
GCCAGGGA: -0.308
ACCTCAAC: -0.0344
AGGCGATG: -0.141

Sample 5
Target: Histone acetyltransferase KAT6A, winged helix 1, GST fusion (KAT6A, Homo sapiens, UniProt Q92794, residues 1-85)
Method: protein binding microarray
Molecule type: double-stranded DNA, one strand shown
Sample: in vitro
Concentration: not given
Notes: 8-mer, flanks averaged, mean of 2 arrays, mostly near background
Reference: not given
Direction: higher = stronger binding
Endpoint: E-score
Residues (chain): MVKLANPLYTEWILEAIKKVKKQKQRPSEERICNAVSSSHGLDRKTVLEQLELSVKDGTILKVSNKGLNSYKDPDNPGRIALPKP
CTCTACAA: -0.135
GAGAGTGC: 0.00873
GACCCATA: -0.103
AACGAACT: -0.144
CGGAATGC: 0.19
AAGGAATG: -0.102
CAGAATCA: -0.177
AGCGCGCA: 0.43
CAGGGATA: -0.255
AATCCGTA: 0.188
AAGTTGAT: -0.172
ACTGAGCA: -0.181
TAACGCGA: 0.239
TCGGTGAA: 0.114
CAAACTGA: -0.0844
AGTCGGTA: -0.0499
ACTGAAAT: -0.172
ACAGCCGC: 0.282
ACTAAGTA: -0.043
AGCATTCC: 0.0478
CTAGATCC: -0.145
AAAGTTAT: -0.0536
CTTTACAC: -0.00721
ATGTCGGA: 0.111
AGCCACGG: 0.225

Sample 6
Target: Interferon regulatory factor 7, full length, phosphomimetic (IRF7, Homo sapiens, UniProt Q92985, residues 1-503, S101K/S471D/S472D/S475D/S476D/S477D/S483D/S484D/S487D)
Method: protein-binding microarray
Molecule type: double-stranded DNA, one strand shown
Sample: in vitro
Concentration: 250 nM
Notes: 60-bp whole probe
With: salmon DNA 0.4 mg/ml
Reference: random background probes
Direction: higher = stronger binding
Endpoint: log fluorescence
Shared flanks, not repeated: GCCTAGCAC … GTCTTGATTCGCTTGACGCTGCTG
Target sequence (chain): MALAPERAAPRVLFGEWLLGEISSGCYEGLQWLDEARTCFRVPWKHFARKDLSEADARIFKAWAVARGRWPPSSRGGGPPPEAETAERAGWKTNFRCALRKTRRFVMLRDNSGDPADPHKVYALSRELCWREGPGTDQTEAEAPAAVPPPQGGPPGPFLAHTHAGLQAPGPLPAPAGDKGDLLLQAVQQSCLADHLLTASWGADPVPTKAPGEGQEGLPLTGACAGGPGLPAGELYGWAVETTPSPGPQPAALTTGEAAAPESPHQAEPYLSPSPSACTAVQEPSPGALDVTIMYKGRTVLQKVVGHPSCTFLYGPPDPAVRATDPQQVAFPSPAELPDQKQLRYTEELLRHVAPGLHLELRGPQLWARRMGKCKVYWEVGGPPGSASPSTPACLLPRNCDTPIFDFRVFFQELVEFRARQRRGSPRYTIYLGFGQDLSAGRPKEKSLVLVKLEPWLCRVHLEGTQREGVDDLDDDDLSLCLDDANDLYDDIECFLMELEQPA
GACGGACTGCTTAACCTGACGTGCTAG: -0.316 z-score
TTAGGTATCCTACTGCATTAGTGCTAG: -0.351 z-score
TCAATTCTCTGCTTCTGACTGTGCTAG: 0.854 z-score
TTAGGACTGGACACTGGGTTTGTGCTA: -0.413 z-score
TTTTTTTTTTTTTCTGATCCGTGCTAG: 0.9 z-score
TTAGATATCAGTTTCGATTTGTGCTAG: 12.8 z-score
TGTGTTTTCACTTTTCCTACGTGCTAG: 2.8 z-score
GACGATTTCAGGCTGGAGACGTGCTAG: -0.211 z-score
CATTTTCTTTAACTCATTCTGTGCTAG: 2.16 z-score
TCAAATCTCACTCTGTCACTGTGCTAG: 0.283 z-score
TCCCTTTCAGTTTTCCTCTGGTGCTAG: 1.5 z-score
TCACCTCTTTCTCTGCTACTGTGCTAG: 1.17 z-score
ATTTTTTTCTAAGTAAACCCGTGCTAG: 0.858 z-score
TCAGGTTTTTTTTTAATACTGTGCTAG: 0.384 z-score
GACGGTCTGGGTATCGGGACGTGCTAG: -0.382 z-score
TTTGATCTCAGTCTCGATTAGTGCTAG: 1.31 z-score
GACGGTATTCTTTTCCTGACGTGCTAG: 0.598 z-score
GCCGATTTCAGTATCGAGACGTGCTAG: 0.898 z-score
TTAGATTTGAGTTTCGATTAGTGCTAG: 7.94 z-score
ATATATGTAATCATTCACCTGGTGCTA: 0.172 z-score
GACTGTCTCGGACTGGGGACGTGCTAG: 0.0874 z-score
ATGACTCCCTCTCTGGCCAAGTGCTAG: -0.0982 z-score
TTAGATTTCAGTTCCGATTAGTGCTAG: 1.85 z-score
TTAGATATCGTGACTGGATTAGTGCTA: -0.0338 z-score
GACGAACTGAGGCTCGAGACGTGCTAG: 0.231 z-score

For quick reference, copied from above (sample 1):
GAGCUUUCUCUCGUGCAGUUUCAUCAGAGGUUUGGGAGGAGGGCAAGUGGCCGCUAGAGAAGAAUACAAUUUAGCAGCAACUGCCGGCUCUUUGGGCAGAGGUUUGAUUU: 0.539
UCUAUUACUCUUACACUUUAGUUUUACCAUUUGAGUAGCCACUUAUUCACCAGAGUUGGAAUUGAGAAAUUUUGGGCUUUCCAAAAUUAACCUUUAAACUUAAAAUUGAU: 0.455
CCCUUCGAAGGGAAGCCCAAACACUUUGCACGCUGUGCUGCAGACAUUCUGGCCUGGUGUGUCUGAAAGUUGCAUCAGUCCUCACGGUGCAAACACAGUUGAUUUAGGAA: 0.255
CCUGAAUUGGAGAGCUUGACCUUUUGCUUGUUAUUUUGCAGUUUGAUUUUGGGCCUAAAGAUGCCAGUGCUUUUCAGCUGUGGUGUGCAUGUCAUUAACUACCCCUCUCU: 9.8
CGUUGUUUGACUAUUUUAUAAUUUUGUUAUUAAAACAUCCAGGGUGAUUUCAUCUUUGUUCCUAGAUGUACUCAUUUGAAUAGGUUUUGCGUUCAUUACUCAGCAGUGUA: 0.764
CCCUGACAAACAACAGGUGGCAUCUGGUGUGCUGUUCUUGAGUUUUCGUUUAGGAUUAGUUGAGUUCCAGCUGGGUUUUGGGAGAAAGGAGAUGCUACCAAGUCUUGGAU: 0.767
